Assay results gathered from unrelated publications.
Numbered parts are unrelated; each lists some results of a single study. Substitutions count along the parent as printed.

Series 1
Target: ABI1, truncated, D143A, DHFR fusion (Arabidopsis thaliana)
Method: DHFR PCA, deep sequencing
Medium: yeast
Notes: methotrexate growth selection, single substitutions
With: (+)-ABA 0.032 µM
Relative to: wild-type fitted maximum
Reading: higher = stronger binding
Starting sequence: PYL1, truncated, DHFR fusion (Arabidopsis thaliana); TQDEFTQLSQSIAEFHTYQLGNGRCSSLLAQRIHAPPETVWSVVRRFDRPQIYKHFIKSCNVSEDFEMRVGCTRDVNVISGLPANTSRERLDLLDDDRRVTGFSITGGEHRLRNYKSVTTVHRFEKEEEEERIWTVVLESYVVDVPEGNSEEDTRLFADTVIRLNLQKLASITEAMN; partner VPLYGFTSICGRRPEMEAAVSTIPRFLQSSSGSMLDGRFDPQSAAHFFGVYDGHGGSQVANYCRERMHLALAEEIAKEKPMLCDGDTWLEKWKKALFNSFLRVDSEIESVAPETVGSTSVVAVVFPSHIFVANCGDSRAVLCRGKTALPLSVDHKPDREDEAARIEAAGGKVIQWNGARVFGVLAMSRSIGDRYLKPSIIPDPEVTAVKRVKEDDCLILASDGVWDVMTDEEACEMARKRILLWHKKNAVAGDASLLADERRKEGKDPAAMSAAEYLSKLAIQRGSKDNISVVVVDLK
Substitution | relative binding score [%]
E89M | 0.961
L112T | 0.247
V118I | 19.8
E152D | 19.7
W134L | 13.7
D3S | 19
C72Q | 35.1
T154K | 0.677
P36G | 0.646
R45E | -2.83
D92K | 2.09
S42M | 13.6
S150V | 3.44
N114M | -6.79
Q51A | -0.52
H34R | 25.5
A13W | -2.84
H110K | 28.4

Series 2
Target: RNA binding protein fox-1 homolog 2, RRM domain, GST-SBP tag (RBFOX2, Homo sapiens, UniProt O43251-10, residues 100-194)
Method: RNA Bind-n-Seq
Form: RNA
Medium: in vitro
Tested at: 365 nM
Notes: natural RNA segment, single round, ends assumed
Relative to: no-protein control
Reading: higher = stronger binding
Constant ends, left off below: GGGAGUUCUACAGUCCGACGAUC … UGGAAUUCUCGGGUGCCAA
Construct (chain): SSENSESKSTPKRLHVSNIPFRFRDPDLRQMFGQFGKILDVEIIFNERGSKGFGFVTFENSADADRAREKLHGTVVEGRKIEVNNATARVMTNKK
Strand | RBNS enrichment (R)
CCCAUCUCUGUGGCCCUCUGAAGCCCCAGCCCCCAUGCAUCAGCCUCUGGCACAUUUCCUCUCCUGCCUCUGCUUGAAAAGGAAACCAGAAGCCGAACAAGUGAGAGUAA | 0.745
GAGAAAGUUCAAGUUAGCUUCAGUCCUUCAGUGAUAGGCAACCUAGGUUUUCUAGAGUUUAAUUCUUUAUCAGCCAGGCAAUGACUCUGAACUCUGAAAUGCUAUAUUAU | 0.415
UCAGAUUCCCAGUAAACACCUCUGUAGGGGAUGAAGUUUCCAUGUCCCCCAUCUUCCUUUUGGUCACCUUCAUCUGUGUGUCAGUUAAGACACAGUGAGGGACAGCCCAG | 0.293
UCUGUCCAUUUCUGUUUUGCUUUCCUGGCUAAACCCAUCUACCAUUCUUAACACUGGUAGCUCCUGUCCCAUUCCAAGACUCACUCUCUCAGACCUUCCCAUCUCCCUGG | 0.454
ACAUUCCACCUCCAUCUCUGCUUGUGUCCCUCACAUCAGCAUUAAUCUUUGUUUCCCUCACACUUAGAGCCACUAAGUCUGCAGUUCUUUUUGAAUGUGAAACACAUCUG | 0.613
CAGAACUAAAUUGCCGCAGACAGGAGUUAAAGUUUUAUAUUUUCCUGCUCAGUUAUCUAAUGUCUUAGAUCAGUGGUCCCCAAAUUUUGCUACAUAUUAGAAUCAUCUGG | 0.386
ACAGCUCUUCUUGCUUAGUGCGGAACCCAGGGAGCUGCUCAGACUUCCACCAAAGCAAAUCUGGCUCCUUCUUUAGAGAGAAGCCUACGUGGCGACUGCUCUUAUUUAAG | 0.297
AGGGCGGAGCCAUCCAGAGCUCUCAGAAUGGAUGCUGCCGGCAUCACCGCCCCCACCCCACCCUCAGGCUGGAGCUCUGGGUGUGGGCAGGGACUGUGGCCCUGGAUUGC | 1.27

Series 3
Target: Sal-like protein 4, full length isoform A (SALL4, Homo sapiens, UniProt Q9UJQ4, residues 1-1053)
Chain of UniProt Q9UJQ4 (whole entry, looked up): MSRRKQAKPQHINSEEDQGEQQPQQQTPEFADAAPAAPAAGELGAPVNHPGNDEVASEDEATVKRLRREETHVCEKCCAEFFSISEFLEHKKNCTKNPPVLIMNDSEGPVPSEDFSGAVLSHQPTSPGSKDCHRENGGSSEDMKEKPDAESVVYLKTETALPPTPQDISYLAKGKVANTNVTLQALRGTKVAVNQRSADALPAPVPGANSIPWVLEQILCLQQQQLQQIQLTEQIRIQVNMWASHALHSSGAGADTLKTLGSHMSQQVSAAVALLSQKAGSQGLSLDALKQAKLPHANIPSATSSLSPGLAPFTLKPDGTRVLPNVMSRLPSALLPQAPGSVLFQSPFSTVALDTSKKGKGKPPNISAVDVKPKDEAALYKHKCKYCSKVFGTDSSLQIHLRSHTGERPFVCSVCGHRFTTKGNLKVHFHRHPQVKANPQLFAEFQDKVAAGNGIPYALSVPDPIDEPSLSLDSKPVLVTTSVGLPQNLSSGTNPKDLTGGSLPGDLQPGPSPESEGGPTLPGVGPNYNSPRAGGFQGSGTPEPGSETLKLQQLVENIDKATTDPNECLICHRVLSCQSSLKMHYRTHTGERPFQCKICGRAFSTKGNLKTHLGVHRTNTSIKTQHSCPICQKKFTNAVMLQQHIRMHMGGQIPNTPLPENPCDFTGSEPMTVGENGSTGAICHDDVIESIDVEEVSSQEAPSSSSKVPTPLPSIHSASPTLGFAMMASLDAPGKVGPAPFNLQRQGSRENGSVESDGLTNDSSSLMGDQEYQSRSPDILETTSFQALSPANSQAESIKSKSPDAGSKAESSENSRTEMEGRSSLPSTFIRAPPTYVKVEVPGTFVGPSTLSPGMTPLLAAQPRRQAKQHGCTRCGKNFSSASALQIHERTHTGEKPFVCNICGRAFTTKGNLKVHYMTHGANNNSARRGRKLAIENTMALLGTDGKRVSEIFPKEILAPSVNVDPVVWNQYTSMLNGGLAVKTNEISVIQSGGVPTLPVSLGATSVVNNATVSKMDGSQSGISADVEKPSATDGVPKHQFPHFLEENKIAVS
Method: universal PBM
Form: double-stranded DNA, one strand shown
Medium: in vitro
Tested at: 600 nM
Notes: 8-mer, flanks averaged, mean of replicates
Reading: higher = stronger binding
Strand | E-score
ATGACAAG | 0.0666
ACCTCGAT | -0.0869
GGACCATA | -0.11
AGCCCGAG | -0.256
AATGAATT | 0.333
GACACGAC | -0.00788
CGCACAGA | -0.0559
CTAGGCGA | -0.126
CATTCAGA | 0.0401
AAGTAGTG | 0.059
TAGCTTAA | 0.146
CATTTGTA | 0.293
CACATAAC | 0.252
GTCACACA | -0.0154
AACAATAC | 0.212
CTTACTCC | 0.0589
CGTAGTTA | 0.239
ACAGACGA | -0.0925

Series 4
Target: Interferon regulatory factor 5, full length, phosphomimetic (IRF5, Homo sapiens, UniProt Q13568-2, residues 1-514, K96S/S451D/S453D/S456D/S462D)
Method: protein-binding microarray
Form: double-stranded DNA, one strand shown
Medium: in vitro
Tested at: 250 nM
Notes: 60-bp whole probe
With: salmon DNA 0.4 mg/ml
Relative to: random background probes
Reading: higher = stronger binding
Constant ends, left off below: GCCTAGCAC … GTCTTGATTCGCTTGACGCTGCTG
Strand | log fluorescence [z-score]
TCATCTCTCTATTCAGAACTGTGCTAG | 0.581
GGTTTTCTCTATTGCTTTCTGTGCTAG | 3.35
TCCACTTGTCTTTTCATTTTGTGCTAG | 1.57
TCAGATATAGGATAACGAGCCGTGCTA | 0.119
TTACATATCAGTATCGATTAGTGCTAG | 8.07
TTAGGTACCGACTATCGGTTAGTGCTA | 6.4
CACGAACTGAGTATCGAGACGTGCTAG | 1.41
TTAGGTCTCGGACTGGGTTCGTGCTAG | -0.372
TTAGGTTTCGACACTGGGTTCGTGCTA | 5.54
GACGGTTCCGGTTTCGAGACGTGCTAG | 4.22
TCATCTCTGGTCTTTGTACTGTGCTAG | 0.551
TTAGAACTGAGATTGGATTAGTGCTAG | 0.0551
TCTGTTTTCTCCATGGAAGAGTGCTAG | 1.62
AAATATTTACCTCTCACGCAGTGCTAG | 0.275
TCATCTTCATGTTTTTTACTGTGCTAG | 0.79
GACGATTTCAGTATCGACACGTGCTAG | 4.41
CTAGGTTCCGGTTTCGGTTAGTGCTAG | 8.61
AATCATTTTAGTTTTCATTAGTGCTAG | 2.66
GACGCTCTCAGTATCGAGACGTGCTAG | 1.51

Repeated from above (series 2):
Strand | RBNS enrichment (R)
UCUGUCCAUUUCUGUUUUGCUUUCCUGGCUAAACCCAUCUACCAUUCUUAACACUGGUAGCUCCUGUCCCAUUCCAAGACUCACUCUCUCAGACCUUCCCAUCUCCCUGG | 0.454
AGGGCGGAGCCAUCCAGAGCUCUCAGAAUGGAUGCUGCCGGCAUCACCGCCCCCACCCCACCCUCAGGCUGGAGCUCUGGGUGUGGGCAGGGACUGUGGCCCUGGAUUGC | 1.27
ACAGCUCUUCUUGCUUAGUGCGGAACCCAGGGAGCUGCUCAGACUUCCACCAAAGCAAAUCUGGCUCCUUCUUUAGAGAGAAGCCUACGUGGCGACUGCUCUUAUUUAAG | 0.297
GAGAAAGUUCAAGUUAGCUUCAGUCCUUCAGUGAUAGGCAACCUAGGUUUUCUAGAGUUUAAUUCUUUAUCAGCCAGGCAAUGACUCUGAACUCUGAAAUGCUAUAUUAU | 0.415
CCCAUCUCUGUGGCCCUCUGAAGCCCCAGCCCCCAUGCAUCAGCCUCUGGCACAUUUCCUCUCCUGCCUCUGCUUGAAAAGGAAACCAGAAGCCGAACAAGUGAGAGUAA | 0.745
CAGAACUAAAUUGCCGCAGACAGGAGUUAAAGUUUUAUAUUUUCCUGCUCAGUUAUCUAAUGUCUUAGAUCAGUGGUCCCCAAAUUUUGCUACAUAUUAGAAUCAUCUGG | 0.386
ACAUUCCACCUCCAUCUCUGCUUGUGUCCCUCACAUCAGCAUUAAUCUUUGUUUCCCUCACACUUAGAGCCACUAAGUCUGCAGUUCUUUUUGAAUGUGAAACACAUCUG | 0.613
UCAGAUUCCCAGUAAACACCUCUGUAGGGGAUGAAGUUUCCAUGUCCCCCAUCUUCCUUUUGGUCACCUUCAUCUGUGUGUCAGUUAAGACACAGUGAGGGACAGCCCAG | 0.293
